Measured values from different studies.
Numbers after ± are the reported error.

Structure (SMILES) | test | test system | conditions | Cmax
C[C@H]1Oc2cc(cnc2N)-c2c(nn(C)c2C#N)CN(C)C(=O)c2ccc(F)cc21 |  | healthy adults | oral solution, 100 mg single dose, adjusted geometric mean | 692 ng/mL
C[C@@H](N)c1cc(Cl)ccc1Cn1c(=S)[nH]c(=O)c2[nH]ccc21 |  | healthy Chinese volunteers, plasma | oral, 5 mg once daily, day 10, geometric mean | 39.7 nM
Cc1ccc(Sc2ccccc2N2CCNCC2)c(C)c1 |  | healthy men, plasma | oral, 10 mg once daily, fed, day 12 | 21.2 ng/mL
O=C1c2cccc3c2[C@H](CCC3)CN1[C@@H]1CN2CCC1CC2 |  | healthy volunteers, plasma | oral, 0.50 mg single dose, mean, added: netupitant 300 mg fixed combination | 1.18 ng/mL
Cc1nc2cccc(N)c2c(=O)n1C1CCC(=O)NC1=O (centres unmarked) |  | healthy adults, plasma | oral, 3 mg, geometric mean, added: fluvoxamine 50 mg twice daily | 75.3 ng/mL
CC(C)=CCC[C@](C)(O[C@@H]1O[C@H](CO)[C@@H](O)[C@H](O)[C@H]1O)[C@H]1CC[C@]2(C)[C@@H]1[C@H](O)C[C@@H]1[C@@]3(C)CC[C@H](O[C@@H]4O[C@H](CO)[C@@H](O)[C@H](O)[C@H]4O)C(C)(C)[C@@H]3CC[C@]12C | LC-MS/MS | healthy male volunteers, serum | oral, 3 g red ginseng | 0.57 ± 0.22 ng/mL
N[C@@H](CC(=O)N1CCn2c(nnc2C(F)(F)F)C1)Cc1cc(F)c(F)cc1F |  | healthy Korean subjects, plasma | oral, 100 mg single dose, ABCB1 G2677T/A GA | 470 ± 100 ng/mL
Cn1cnc2c(F)c(Nc3ccc(Br)cc3Cl)c(C(=O)NOCCO)cc21 |  | ESRD on hemodialysis, plasma | oral, 50 mg single dose, dosed 1 h before dialysis | 507 ng/mL
CC(C)(Sc1ccncc1-c1ccc(C#N)c2ccccc12)C(=O)O |  | non-Asian male subjects, plasma | oral, 10 mg, single dose, fasted, geometric least squares mean | 11 ng/mL
COc1cc(OC)c(/C=C/S(=O)(=O)Cc2ccc(OC)c(NCC(=O)O)c2)c(OC)c1 |  | cancer patients, phase I, plasma | oral, 700 mg twice daily, day 21 cycle 1 | 2340 ± 1280 ng/mL
O=C1CCc2ccc(OCCCCN3CCN(c4cccc(Cl)c4Cl)CC3)cc2N1 |  | healthy Japanese men, CYP2D6 EM, plasma | oral, 3 mg aripiprazole single, added: fluvoxamine 100 mg/day | 20.5 ± 4 ng/mL
NC(=O)c1cnc2[nH]ccc2c1N[C@@H]1[C@@H]2CC3C[C@H]1C[C@@](O)(C3)C2 |  | healthy Caucasian men, plasma | oral, 20 mg, single dose fasted | 48.9 ng/mL
Nc1ncc(-c2cnn(CCO)c2)c2scc(-c3ccc(NC(=O)Nc4cccc(F)c4)cc3)c12 |  | patient, plasma | oral, 320 mg twice weekly, day 1, trial | 1480 ± 890 ng/mL
C[C@@H](O)[C@H]1C(=O)N2C(C(=O)O)=C(S[C@@H]3CN[C@H](C(=O)N(C)C)C3)[C@H](C)[C@H]12 | microdialysis | pig (Danish Landrace), cancellous bone | iv infusion, 1000 mg over 10 min, added: vancomycin co-administered | 14000 ng/mL
CNC(=O)c1cc(Oc2ccc(NC(=O)Nc3ccc(Cl)c(C(F)(F)F)c3)c(F)c2)ccn1 |  | metastatic colorectal cancer patients, plasma | oral, dose not given, added: esomeprazole 40 mg concomitant | 4400 ng/mL
CN1C(=O)[C@@H](NC(=O)c2nnc(Cc3ccccc3)[nH]2)COc2ccccc21 |  | healthy men, plasma | oral, 20 mg once daily, day 14, geometric mean | 300 ng/mL
Cc1ccnc2c1NC(=O)c1cccnc1N2C1CC1 |  | olive baboon (Papio anubis), female, non-pregnant, serum | oral, 800 mg, tablet, single dose | 909 ± 657 ng/mL
